Published values gathered from unrelated publications.
Compare with care: the assays were run in different laboratories. ± gives the spread as reported.
KCNH2: Voltage-gated inwardly rectifying potassium channel KCNH2 (KCNH2, Homo sapiens, UniProt Q12809)
Sequence of UniProt Q12809 (whole entry, looked up): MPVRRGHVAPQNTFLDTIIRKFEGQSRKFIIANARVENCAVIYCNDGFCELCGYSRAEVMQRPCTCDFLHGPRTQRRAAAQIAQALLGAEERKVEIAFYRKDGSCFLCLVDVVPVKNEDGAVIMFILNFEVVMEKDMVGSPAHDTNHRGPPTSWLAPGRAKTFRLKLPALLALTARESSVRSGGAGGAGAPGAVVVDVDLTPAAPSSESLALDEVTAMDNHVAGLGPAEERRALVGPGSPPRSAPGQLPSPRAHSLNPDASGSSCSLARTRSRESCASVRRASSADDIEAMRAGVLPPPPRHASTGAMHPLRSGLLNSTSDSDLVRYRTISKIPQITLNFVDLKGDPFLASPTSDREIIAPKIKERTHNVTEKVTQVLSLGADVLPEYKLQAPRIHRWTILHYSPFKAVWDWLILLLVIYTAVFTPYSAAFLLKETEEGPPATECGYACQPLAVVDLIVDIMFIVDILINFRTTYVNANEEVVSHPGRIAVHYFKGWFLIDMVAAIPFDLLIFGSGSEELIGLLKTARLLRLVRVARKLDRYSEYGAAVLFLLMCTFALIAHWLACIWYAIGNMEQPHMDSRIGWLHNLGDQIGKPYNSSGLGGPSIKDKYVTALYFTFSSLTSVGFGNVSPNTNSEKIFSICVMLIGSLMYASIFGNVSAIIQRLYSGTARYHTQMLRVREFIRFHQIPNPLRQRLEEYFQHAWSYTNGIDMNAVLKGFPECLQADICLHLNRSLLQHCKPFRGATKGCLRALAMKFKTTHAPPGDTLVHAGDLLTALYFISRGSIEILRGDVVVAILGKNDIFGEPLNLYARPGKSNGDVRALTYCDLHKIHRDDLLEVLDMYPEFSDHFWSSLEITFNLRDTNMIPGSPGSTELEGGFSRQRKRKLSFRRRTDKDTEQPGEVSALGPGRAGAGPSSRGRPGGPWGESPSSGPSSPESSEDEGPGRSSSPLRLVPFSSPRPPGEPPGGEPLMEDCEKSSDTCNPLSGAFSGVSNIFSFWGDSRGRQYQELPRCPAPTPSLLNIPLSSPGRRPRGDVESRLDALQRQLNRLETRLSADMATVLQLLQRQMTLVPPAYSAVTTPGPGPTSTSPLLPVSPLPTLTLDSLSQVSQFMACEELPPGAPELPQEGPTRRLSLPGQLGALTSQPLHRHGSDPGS
CYP2B6: Cytochrome P450 2B6 (CYP2B6, Homo sapiens, UniProt P20813)
Sequence of UniProt P20813 (whole entry, looked up): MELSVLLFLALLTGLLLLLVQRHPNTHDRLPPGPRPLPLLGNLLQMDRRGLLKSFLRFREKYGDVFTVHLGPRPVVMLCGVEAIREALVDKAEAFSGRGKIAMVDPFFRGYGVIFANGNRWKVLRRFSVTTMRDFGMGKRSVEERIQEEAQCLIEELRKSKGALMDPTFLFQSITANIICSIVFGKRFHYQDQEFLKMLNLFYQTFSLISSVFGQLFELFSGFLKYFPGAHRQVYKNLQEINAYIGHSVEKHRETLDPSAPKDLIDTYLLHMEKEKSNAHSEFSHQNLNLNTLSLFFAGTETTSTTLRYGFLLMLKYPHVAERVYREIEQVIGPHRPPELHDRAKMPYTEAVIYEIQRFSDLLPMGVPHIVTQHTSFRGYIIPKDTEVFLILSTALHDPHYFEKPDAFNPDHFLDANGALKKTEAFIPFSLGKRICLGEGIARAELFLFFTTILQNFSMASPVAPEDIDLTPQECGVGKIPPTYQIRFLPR
Peptidyl-prolyl cis-trans isomerase A: Peptidyl-prolyl cis-trans isomerase A (Rattus norvegicus, UniProt P10111)
Sequence of UniProt P10111 (whole entry, looked up): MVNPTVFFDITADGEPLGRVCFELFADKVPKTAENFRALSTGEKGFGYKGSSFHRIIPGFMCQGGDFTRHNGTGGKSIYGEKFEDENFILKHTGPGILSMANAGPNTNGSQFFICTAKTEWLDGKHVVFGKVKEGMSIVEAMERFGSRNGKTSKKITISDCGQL
CYP27A1: Sterol 26-hydroxylase, mitochondrial (CYP27A1, Homo sapiens, UniProt Q02318)
Sequence of UniProt Q02318 (whole entry, looked up): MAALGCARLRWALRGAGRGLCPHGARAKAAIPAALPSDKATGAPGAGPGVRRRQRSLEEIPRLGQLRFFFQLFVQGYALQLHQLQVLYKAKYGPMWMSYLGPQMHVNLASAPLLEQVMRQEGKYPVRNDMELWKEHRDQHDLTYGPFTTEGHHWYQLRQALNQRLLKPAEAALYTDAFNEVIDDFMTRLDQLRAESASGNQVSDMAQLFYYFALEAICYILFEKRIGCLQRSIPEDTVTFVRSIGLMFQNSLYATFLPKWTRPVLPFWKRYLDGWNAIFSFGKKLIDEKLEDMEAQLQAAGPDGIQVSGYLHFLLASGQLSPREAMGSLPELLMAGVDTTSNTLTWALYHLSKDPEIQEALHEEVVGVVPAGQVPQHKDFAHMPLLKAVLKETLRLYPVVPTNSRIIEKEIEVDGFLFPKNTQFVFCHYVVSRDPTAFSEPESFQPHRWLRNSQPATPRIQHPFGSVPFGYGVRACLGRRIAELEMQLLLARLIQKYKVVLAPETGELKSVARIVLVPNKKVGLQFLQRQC
Sequence of UniProt P10635 (whole entry, looked up): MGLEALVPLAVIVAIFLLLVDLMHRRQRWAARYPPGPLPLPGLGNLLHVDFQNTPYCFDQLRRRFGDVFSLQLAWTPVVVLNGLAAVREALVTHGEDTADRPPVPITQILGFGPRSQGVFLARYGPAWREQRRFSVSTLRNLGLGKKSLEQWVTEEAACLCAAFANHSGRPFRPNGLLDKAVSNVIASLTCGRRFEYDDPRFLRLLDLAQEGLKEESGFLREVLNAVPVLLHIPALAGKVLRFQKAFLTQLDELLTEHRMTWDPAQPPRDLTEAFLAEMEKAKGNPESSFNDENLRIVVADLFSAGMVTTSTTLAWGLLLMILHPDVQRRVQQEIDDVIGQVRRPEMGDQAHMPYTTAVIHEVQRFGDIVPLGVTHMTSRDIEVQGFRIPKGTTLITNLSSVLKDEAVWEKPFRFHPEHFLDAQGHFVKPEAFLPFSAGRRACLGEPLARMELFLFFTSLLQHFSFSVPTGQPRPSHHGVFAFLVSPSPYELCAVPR
Sequence of UniProt P08253 (whole entry, looked up): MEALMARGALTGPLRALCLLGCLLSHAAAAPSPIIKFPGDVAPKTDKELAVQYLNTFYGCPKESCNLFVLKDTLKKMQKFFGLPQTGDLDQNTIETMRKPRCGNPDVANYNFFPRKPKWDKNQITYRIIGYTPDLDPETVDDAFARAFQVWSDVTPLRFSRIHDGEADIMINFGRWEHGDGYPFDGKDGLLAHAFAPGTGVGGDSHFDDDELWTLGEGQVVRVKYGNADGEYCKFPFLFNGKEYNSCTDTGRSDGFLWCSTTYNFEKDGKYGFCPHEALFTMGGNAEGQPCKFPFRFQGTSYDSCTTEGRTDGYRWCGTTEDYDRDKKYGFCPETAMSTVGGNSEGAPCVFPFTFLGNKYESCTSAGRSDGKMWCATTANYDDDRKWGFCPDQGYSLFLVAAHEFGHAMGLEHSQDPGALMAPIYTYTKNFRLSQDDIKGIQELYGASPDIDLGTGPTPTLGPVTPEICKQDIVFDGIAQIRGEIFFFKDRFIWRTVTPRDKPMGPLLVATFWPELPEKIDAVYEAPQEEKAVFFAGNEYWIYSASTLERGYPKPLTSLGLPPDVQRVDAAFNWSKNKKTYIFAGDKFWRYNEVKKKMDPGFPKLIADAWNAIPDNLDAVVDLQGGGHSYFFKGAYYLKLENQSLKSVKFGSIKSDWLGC
Sequence of UniProt Q9CPV9 (whole entry, looked up): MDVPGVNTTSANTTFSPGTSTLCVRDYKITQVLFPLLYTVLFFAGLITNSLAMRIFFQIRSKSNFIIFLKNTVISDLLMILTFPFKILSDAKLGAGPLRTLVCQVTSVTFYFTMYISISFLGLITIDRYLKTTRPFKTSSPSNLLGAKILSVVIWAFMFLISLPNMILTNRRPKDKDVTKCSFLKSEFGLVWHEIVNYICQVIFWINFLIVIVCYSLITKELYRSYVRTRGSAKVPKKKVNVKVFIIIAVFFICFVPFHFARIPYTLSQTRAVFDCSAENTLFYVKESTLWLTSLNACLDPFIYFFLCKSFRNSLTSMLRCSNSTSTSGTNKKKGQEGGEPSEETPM
Sequence of UniProt P00760 (whole entry, looked up): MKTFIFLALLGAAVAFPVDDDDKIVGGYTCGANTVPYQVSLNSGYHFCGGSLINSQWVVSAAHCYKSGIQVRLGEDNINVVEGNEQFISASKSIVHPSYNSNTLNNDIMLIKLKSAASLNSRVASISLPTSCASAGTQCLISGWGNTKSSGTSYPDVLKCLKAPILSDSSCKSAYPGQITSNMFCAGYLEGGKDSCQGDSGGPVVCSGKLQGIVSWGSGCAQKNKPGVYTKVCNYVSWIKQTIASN
Sequence of UniProt P11980 (whole entry, looked up): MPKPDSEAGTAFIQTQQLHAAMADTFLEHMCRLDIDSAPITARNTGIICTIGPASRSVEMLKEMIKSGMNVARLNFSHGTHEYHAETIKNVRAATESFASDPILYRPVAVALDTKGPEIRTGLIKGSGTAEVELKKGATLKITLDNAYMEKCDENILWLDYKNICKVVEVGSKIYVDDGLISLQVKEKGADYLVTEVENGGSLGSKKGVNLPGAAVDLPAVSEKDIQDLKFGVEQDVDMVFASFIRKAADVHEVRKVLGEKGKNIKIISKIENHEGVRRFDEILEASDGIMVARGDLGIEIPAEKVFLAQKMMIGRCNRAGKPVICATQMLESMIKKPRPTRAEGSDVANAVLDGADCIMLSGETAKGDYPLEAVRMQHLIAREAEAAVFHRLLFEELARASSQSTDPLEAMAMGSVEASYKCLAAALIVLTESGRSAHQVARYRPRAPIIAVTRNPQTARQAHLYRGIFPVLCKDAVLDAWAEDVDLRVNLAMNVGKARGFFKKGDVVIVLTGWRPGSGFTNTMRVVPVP
Sequence of UniProt P16257 (whole entry, looked up): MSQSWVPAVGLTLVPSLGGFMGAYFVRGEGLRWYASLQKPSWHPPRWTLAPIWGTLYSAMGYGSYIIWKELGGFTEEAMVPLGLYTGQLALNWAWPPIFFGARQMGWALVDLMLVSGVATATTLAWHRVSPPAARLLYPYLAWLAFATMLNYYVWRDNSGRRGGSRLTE

| SMILES | target | assay | test system | conditions | how to read | endpoint | result |
| --- | --- | --- | --- | --- | --- | --- | --- |
| CCOc1ccc(NS(=O)(=O)c2ccc(C)c(C(=O)N3CCOC(c4ccccc4)C3)c2)cc1 (stereo not drawn) | KCNH2 | ion current, inhibitor |  |  |  | IC50 | > 30 µM |
| CCC(=O)N(C)c1ccc(Cl)c(Cl)c1 | KCNH2 | ion current, inhibitor, patch clamp | HEK293 | 100 µM |  | inhibition | 27.9% |
| C=CC(=O)Nc1cc(Nc2nccc(-c3cn(C)c4ccccc34)n2)c(OCC(F)(F)F)nc1N(C)CCN(C)C | CYP2B6 | enzyme activity, inhibitor | human, liver microsomes | 33.3 µM |  | activity vs control | 95.8% |
| N#Cc1cc(C(=O)OCC[18F])c(C(F)(F)F)nc1N1CCN(C(=O)Cc2ccccc2)CC1 | P2Y purinoceptor 12 (P2ry12, Mus musculus, UniProt Q9CPV9) | PET | aged mouse, 40 weeks, brain | 11.1 MBq, 60 min |  | SUV | 0.52 ± 0.04 |
| C/C=C/C[C@@H](C)[C@@H](O)[C@H]1C(=O)N[C@@H](CC)C(=O)N(C)C(Cc2ccc(C(=O)NCCCCCCNC(=O)CCCCC[P+](c3ccccc3)(c3ccccc3)c3ccccc3)cc2)C(=O)N(C)[C@@H](CC(C)C)C(=O)N[C@@H](C(C)C)C(=O)N(C)[C@@H](CC(C)C)C(=O)N[C@@H](C)C(=O)N[C@H](C)C(=O)N(C)[C@@H](CC(C)C)C(=O)N(C)[C@@H](CC(C)C)C(=O)N(C)[C@@H](C(C)C)C(=O)N1C (stereo partly drawn) | Peptidyl-prolyl cis-trans isomerase A |  | parallel incubation with rat mitochondria | concentration not given, at IC50 for pore opening |  | inhibition | 9 ± 1% |
| COc1cc(-c2nc3ccccc3s2)cc(CN(C)Cc2ccccn2)c1O | Cu2+ |  |  | 50 µM, pH 6.6, 1:1 metal:ligand |  | pCu | 7 |
| CC(C)C[C@H](NC(=O)[C@@H]1CCCN1C(=O)[C@H](CCCNC(=N)N)NC(=O)CNC(=O)[C@H](CCCCNC(=O)CN1CCN(CC(=O)O)CCN(CC(=O)O)CCN(CC(=O)O)CC1)NC(=O)CC[C@@H]1NC(=O)[C@@H](Cc2ccccc2)NC(=O)[C@H](CC(=O)O)NC(=O)CNC(=O)[C@H](CCCNC(=N)N)NC1=O)C(=O)N[C@H](C(=O)N[C@@H](Cc1ccc(O)cc1)C(=O)O)C(C)C [copper-64 labelled] | 72 kDa type IV collagenase (MMP2, Homo sapiens, UniProt P08253) | substrate, radio-HPLC |  | pH 7.5, 37 °C, together with: APMA-activated enzyme |  | peptide cleavage | no effect |
| CC[C@H](C)[C@@H]1NC(=O)[C@H](Cc2c[nH]c3ccccc23)NC(=O)[C@H](CCCN)NC(=O)CNC(=O)[C@H]2CCCN2C(=O)[C@H](C(C)C)NC(=O)[C@H](CCCCN)NC(=O)[C@H](C(C)C)NC(=O)[C@@H](NC(=O)[C@H](CCCNC(=N)N)NC(C)=O)CCCCn2cc(nn2)C[C@@H](C(=O)N[C@@H](CCC(N)=O)C(N)=O)NC1=O | Serine protease 1 (PRSS1, Bos taurus, UniProt P00760) | substrate |  | pH 7.6, 37 °C | reference: cyclic over non-cyclic peptide | half-life ratio | 4 |
| Cc1cc(O)cc(O)c1C(=O)c1c2c3c(c(O)cc(C)c3oc1=O)C(=O)c1c(O)cc(O)cc1-2 | KCNH2 | potassium current, inhibitor | HEK293 | 5 µM, pH 7.4 |  | inhibition | 3.8 ± 4% |
| Cc1cccc(Cn2ncc3c4cc(F)c(CN(C)C)cc4n(C)c3c2=O)n1 | Pyruvate kinase PKM (Rattus norvegicus, UniProt P11980) | enzyme activity, activator | rat, retina | intravitreal, 1 µM vitreous concentration |  | half-life of slow phase | 45.6 days |
| CNC(=O)c1ccc(N2CCN(Cc3ccc4nc(C)c(=O)[nH]c4c3F)CC2)c([18F])n1 | Poly [ADP-ribose] polymerase 1 (Macaca mulatta, UniProt H9FQ77) | PET | male rhesus monkeys, prefrontal cortex | intravenous, dose not given, baseline |  | radioactivity uptake | 1.1 SUV |
| Cc1cccc(C)c1NC(=O)CC(C)NCc1cccc2ccccc12 (stereo not drawn) | KCNH2 | potassium current, patch clamp | tsA201 transfected with KCNH2 | 0.2% DMSO |  | concentration of maximal effect | 100 µM |
| CCc1cc(C)n2nc(-c3ccc(OCC[18F])cc3)c(CC(=O)N(CC)CC)c2n1 | Translocator protein (Tspo, Rattus norvegicus, UniProt P16257) | Logan plot analysis | rat C6 glioma model, brain | dose not given, 60 min dynamic PET |  | total distribution volume | 3.53 ± 1.27 mL/cm3 |
| COC(=O)CC[C@@H](NC(=O)[C@@H](Cc1ccc(OP(=O)(O)O)cc1)NC(=O)[C@@H](Cc1ccccc1)NC(=O)[C@@H](Cc1ccccc1)NC(=O)Cc1ccc2ccccc2c1)C(=O)OC | carboxylesterase | substrate | HS5 | 200 µM, 24 h |  | ester hydrolysis | 9.7% |
| [64Cu+2].c1cnc(CNCc2ccc(CN3CCCN4CCNCCCN(CC4)CC3)cc2)nc1 | CXCR4 (human) |  | NOD/SCID mice, U87 xenografts, U87 control tumour | 120 min post-injection |  | tissue uptake | 6.49 ± 0.6 %ID/g |
| C/C=C/C[C@@H](C)[C@@H](O)[C@H]1C(=O)N[C@@H](CC)C(=O)N(C)C(Cc2ccc(C(=O)NCCOCCNC(=O)CC[P+](c3ccccc3)(c3ccccc3)c3ccccc3)cc2)C(=O)N(C)[C@@H](CC(C)C)C(=O)N[C@@H](C(C)C)C(=O)N(C)[C@@H](CC(C)C)C(=O)N[C@@H](C)C(=O)N[C@H](C)C(=O)N(C)[C@@H](CC(C)C)C(=O)N(C)[C@@H](CC(C)C)C(=O)N(C)[C@@H](C(C)C)C(=O)N1C (stereo partly drawn) | Peptidyl-prolyl cis-trans isomerase A |  | parallel incubation with rat mitochondria | concentration not given, at IC50 for pore opening |  | inhibition | 1 ± 1% |
| COc1cc2c(CCNC(C)=O)c[nH]c2cc1OS(=O)(=O)O | Abcg2 (mouse) |  | FVB/N Abcg2-/- male mice, small intestine | oral, 10 mg/kg melatonin, 1 h |  | concentration | 1270 ± 650 ng/g |
| CCc1nc(N)nc(N)c1C#CC(C)c1cc(-c2ccnc(OC)c2)ccc1OC (racemic) | Cytochrome P450 2D6 (CYP2D6, Homo sapiens, UniProt P10635) | enzyme activity, inhibitor, fluorescence |  |  |  | IC50 | 13.2 µM |
| [64Cu+2].c1ccc(CNCc2ccc(CN3CCCN4CCNCCCN(CC4)CC3)cc2)nc1 | CXCR4 |  | NOD/SCID mouse, U87 xenografts, small intestine | 90 min |  | tissue uptake | 3.7 ± 0.25 %ID/g |
| COc1cc(-c2nc3ccccc3s2)cc(CN(Cc2ccccn2)Cc2ccccn2)c1O | Cu2+ |  |  | 50 µM, pH 6.6, 1:1 metal:ligand |  | pCu | 9.6 |
| C=C1CCC(O)CC1=CC=C1CCCC2(C)C1CCC2C(C)(O)CCCCCC (stereo not drawn) | CYP27A1 | substrate |  | 50 µM, 3 h, 0.45% cyclodextrin, 1 µM enzyme |  | substrate conversion | 18% |
| Cc1cn(CC(=O)N[C@H](C(=O)N[C@H](C(=O)N2CCC[C@H]2C(=O)N[C@H](C(=O)O)C(C)C)[C@@H](C)O)[C@@H](C)O)c(=O)[nH]c1=O | proteinase K | substrate, LC-MS | HEPES buffer | 24 h, 37 °C, initial 0.2 mg/mL, together with: proteinase K 3.2 U/mL |  | remaining compound | 100.1 ± 0.6% |
| C=C1CCC(O)CC1=CC=C1CCCC2(C)C1CCC2C(C)(C)O (stereo not drawn) | CYP27A1 | substrate |  | 50 µM, 3 h, 0.45% cyclodextrin, 1 µM enzyme |  | substrate conversion | 0% |
| CCC1CC2C(C)=CC3C(=O)CCCC3C=CC(C)=CC2C(=O)O1 (stereo not drawn) | CYP2B6 |  | human liver microsomes | 10 µM, 10 min, pH 7.4, together with: bupropion 3.5 µM | reference: untreated | remaining activity | 114% |

Some of these lines once more:
| SMILES | target | assay | test system | conditions | how to read | endpoint | result |
| --- | --- | --- | --- | --- | --- | --- | --- |
| COc1cc(-c2nc3ccccc3s2)cc(CN(C)Cc2ccccn2)c1O | Cu2+ |  |  | 50 µM, pH 6.6, 1:1 metal:ligand |  | pCu | 7 |
| CC(C)C[C@H](NC(=O)[C@@H]1CCCN1C(=O)[C@H](CCCNC(=N)N)NC(=O)CNC(=O)[C@H](CCCCNC(=O)CN1CCN(CC(=O)O)CCN(CC(=O)O)CCN(CC(=O)O)CC1)NC(=O)CC[C@@H]1NC(=O)[C@@H](Cc2ccccc2)NC(=O)[C@H](CC(=O)O)NC(=O)CNC(=O)[C@H](CCCNC(=N)N)NC1=O)C(=O)N[C@H](C(=O)N[C@@H](Cc1ccc(O)cc1)C(=O)O)C(C)C [copper-64 labelled] | 72 kDa type IV collagenase (MMP2, Homo sapiens, UniProt P08253) | substrate, radio-HPLC |  | pH 7.5, 37 °C, together with: APMA-activated enzyme |  | peptide cleavage | no effect |
| CC[C@H](C)[C@@H]1NC(=O)[C@H](Cc2c[nH]c3ccccc23)NC(=O)[C@H](CCCN)NC(=O)CNC(=O)[C@H]2CCCN2C(=O)[C@H](C(C)C)NC(=O)[C@H](CCCCN)NC(=O)[C@H](C(C)C)NC(=O)[C@@H](NC(=O)[C@H](CCCNC(=N)N)NC(C)=O)CCCCn2cc(nn2)C[C@@H](C(=O)N[C@@H](CCC(N)=O)C(N)=O)NC1=O | Serine protease 1 (PRSS1, Bos taurus, UniProt P00760) | substrate |  | pH 7.6, 37 °C | reference: cyclic over non-cyclic peptide | half-life ratio | 4 |
